# Results from different studies.
# Protocols differ between the studies behind these lines. “And” joins repeats or separate records; there may be more than shown.
# TMEM97: Sigma intracellular receptor 2 (TMEM97, Homo sapiens, UniProt Q5BJF2)
# UniProt Q5BJF2, sequence (whole entry, looked up): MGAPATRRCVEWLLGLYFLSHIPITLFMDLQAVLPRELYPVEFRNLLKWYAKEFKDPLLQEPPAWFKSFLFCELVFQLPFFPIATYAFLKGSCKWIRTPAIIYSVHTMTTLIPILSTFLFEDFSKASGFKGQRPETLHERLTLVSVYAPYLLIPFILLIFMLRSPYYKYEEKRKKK
# PFF0160c E182D: Dihydroorotate dehydrogenase (quinone), mitochondrial (PFF0160c, Plasmodium falciparum, UniProt Q08210, E182D)
# CA2: Carbonic anhydrase 2 (CA2, Homo sapiens, UniProt P00918)
# STK32C: Serine/threonine-protein kinase 32C (STK32C, Homo sapiens, UniProt Q86UX6)
# UniProt Q86UX6, sequence (whole entry, looked up): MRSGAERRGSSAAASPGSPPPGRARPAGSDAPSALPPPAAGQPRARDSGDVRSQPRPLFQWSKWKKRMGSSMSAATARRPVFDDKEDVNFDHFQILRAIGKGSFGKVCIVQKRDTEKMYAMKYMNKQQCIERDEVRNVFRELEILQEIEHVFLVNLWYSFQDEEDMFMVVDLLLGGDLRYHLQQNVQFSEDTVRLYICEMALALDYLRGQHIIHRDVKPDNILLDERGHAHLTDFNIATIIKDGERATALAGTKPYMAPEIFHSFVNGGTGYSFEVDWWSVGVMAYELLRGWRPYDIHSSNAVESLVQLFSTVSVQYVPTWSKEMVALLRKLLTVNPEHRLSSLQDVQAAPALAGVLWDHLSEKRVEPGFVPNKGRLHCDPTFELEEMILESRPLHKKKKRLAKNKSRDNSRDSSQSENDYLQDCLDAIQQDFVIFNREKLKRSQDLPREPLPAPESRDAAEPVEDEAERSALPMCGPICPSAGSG
# HTR2C: 5-hydroxytryptamine receptor 2C (HTR2C, Homo sapiens, UniProt P28335)
# UniProt P28335, sequence (whole entry, looked up): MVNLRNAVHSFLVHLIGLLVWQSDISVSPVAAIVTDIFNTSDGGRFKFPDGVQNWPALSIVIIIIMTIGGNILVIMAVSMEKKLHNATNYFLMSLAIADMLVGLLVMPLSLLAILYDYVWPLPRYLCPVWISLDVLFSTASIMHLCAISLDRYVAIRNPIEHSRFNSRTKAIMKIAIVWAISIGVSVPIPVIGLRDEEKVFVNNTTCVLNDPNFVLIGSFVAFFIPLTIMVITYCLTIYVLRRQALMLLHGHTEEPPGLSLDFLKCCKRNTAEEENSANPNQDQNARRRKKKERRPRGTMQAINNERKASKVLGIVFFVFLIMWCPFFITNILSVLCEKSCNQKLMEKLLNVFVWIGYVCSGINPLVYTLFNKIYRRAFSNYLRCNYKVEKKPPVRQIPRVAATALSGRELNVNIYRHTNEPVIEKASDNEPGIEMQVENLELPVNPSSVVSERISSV
# FURIN: Furin (FURIN, Homo sapiens, UniProt P09958)
# UniProt P00742, sequence (whole entry, looked up): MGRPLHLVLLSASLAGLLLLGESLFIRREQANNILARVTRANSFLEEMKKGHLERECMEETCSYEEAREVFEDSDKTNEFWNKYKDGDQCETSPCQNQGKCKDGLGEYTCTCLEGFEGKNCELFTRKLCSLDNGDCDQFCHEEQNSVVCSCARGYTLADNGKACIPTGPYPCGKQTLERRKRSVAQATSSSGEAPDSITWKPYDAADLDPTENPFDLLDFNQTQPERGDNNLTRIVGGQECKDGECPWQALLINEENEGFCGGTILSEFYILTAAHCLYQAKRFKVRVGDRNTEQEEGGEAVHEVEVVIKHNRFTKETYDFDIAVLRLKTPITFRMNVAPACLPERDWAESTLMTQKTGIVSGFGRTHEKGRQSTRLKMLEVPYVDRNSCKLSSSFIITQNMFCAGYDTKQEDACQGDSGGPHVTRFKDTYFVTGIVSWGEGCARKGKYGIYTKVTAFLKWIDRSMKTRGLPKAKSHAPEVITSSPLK
# UniProt P09958, sequence (whole entry, looked up): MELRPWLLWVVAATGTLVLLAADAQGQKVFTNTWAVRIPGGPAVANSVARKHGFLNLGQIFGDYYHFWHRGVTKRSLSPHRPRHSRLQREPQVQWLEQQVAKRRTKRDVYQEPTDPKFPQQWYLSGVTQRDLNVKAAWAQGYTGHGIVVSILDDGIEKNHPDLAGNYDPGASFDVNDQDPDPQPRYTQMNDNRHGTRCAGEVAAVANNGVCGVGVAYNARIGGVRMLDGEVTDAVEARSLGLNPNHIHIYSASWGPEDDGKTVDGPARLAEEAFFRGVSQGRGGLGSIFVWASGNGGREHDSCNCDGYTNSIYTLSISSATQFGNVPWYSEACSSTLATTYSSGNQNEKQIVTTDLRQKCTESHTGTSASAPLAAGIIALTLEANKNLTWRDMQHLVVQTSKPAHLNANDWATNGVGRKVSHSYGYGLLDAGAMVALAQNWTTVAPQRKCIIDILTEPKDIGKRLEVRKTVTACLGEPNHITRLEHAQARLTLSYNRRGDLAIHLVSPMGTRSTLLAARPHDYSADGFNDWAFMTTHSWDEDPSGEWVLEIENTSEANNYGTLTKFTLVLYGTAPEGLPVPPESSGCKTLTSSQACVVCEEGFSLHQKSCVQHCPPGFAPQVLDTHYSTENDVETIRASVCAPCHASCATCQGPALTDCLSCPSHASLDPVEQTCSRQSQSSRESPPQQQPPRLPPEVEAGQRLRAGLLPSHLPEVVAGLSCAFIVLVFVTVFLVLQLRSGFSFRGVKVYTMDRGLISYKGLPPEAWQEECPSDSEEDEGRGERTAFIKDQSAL
# UniProt Q15303, sequence (whole entry, looked up): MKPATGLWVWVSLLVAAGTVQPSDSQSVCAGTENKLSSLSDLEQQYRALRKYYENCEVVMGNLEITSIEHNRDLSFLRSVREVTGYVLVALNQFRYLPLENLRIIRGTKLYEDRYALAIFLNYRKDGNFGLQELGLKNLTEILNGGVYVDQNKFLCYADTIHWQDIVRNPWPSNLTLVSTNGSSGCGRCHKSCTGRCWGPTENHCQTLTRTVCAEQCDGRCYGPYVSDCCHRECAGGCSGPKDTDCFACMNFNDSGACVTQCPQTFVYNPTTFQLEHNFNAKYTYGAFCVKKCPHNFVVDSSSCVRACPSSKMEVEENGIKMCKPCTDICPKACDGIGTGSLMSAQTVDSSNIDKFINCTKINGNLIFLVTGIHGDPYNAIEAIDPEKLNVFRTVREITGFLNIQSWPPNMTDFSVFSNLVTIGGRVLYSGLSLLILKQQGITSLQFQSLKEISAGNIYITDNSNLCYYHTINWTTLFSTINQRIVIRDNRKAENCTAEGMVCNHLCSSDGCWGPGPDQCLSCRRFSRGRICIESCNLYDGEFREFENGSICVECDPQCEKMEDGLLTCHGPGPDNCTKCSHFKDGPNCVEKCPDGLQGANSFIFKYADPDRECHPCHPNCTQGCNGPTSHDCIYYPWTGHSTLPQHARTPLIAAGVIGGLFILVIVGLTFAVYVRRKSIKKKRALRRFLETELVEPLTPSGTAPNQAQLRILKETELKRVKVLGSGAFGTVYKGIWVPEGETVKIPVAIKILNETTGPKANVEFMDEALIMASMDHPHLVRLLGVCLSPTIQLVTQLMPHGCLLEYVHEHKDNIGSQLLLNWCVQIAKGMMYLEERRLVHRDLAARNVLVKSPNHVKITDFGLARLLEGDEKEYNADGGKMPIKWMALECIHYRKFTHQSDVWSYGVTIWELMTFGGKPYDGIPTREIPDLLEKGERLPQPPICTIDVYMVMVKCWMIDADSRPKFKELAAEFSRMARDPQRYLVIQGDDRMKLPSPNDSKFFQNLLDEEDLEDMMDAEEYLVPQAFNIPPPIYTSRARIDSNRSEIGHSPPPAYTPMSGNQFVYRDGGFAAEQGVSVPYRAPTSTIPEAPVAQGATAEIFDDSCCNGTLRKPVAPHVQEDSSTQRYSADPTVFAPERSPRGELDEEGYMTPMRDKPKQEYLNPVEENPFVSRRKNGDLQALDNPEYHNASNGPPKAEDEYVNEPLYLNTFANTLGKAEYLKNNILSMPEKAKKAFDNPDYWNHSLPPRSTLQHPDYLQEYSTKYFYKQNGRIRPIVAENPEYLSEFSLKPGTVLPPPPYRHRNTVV
# UniProt P18089, sequence (whole entry, looked up): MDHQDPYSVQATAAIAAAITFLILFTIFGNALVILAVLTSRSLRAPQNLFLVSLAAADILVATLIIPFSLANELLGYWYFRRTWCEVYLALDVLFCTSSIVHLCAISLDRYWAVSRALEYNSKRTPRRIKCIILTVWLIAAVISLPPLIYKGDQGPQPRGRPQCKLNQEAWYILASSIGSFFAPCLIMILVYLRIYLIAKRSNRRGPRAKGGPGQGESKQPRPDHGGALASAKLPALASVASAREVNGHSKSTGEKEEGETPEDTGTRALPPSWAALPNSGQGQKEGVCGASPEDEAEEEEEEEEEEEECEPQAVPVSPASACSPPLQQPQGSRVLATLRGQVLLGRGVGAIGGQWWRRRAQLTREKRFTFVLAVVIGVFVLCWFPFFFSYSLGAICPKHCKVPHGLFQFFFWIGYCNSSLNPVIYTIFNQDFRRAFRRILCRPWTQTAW
# UniProt Q9BYE2, sequence (whole entry, looked up): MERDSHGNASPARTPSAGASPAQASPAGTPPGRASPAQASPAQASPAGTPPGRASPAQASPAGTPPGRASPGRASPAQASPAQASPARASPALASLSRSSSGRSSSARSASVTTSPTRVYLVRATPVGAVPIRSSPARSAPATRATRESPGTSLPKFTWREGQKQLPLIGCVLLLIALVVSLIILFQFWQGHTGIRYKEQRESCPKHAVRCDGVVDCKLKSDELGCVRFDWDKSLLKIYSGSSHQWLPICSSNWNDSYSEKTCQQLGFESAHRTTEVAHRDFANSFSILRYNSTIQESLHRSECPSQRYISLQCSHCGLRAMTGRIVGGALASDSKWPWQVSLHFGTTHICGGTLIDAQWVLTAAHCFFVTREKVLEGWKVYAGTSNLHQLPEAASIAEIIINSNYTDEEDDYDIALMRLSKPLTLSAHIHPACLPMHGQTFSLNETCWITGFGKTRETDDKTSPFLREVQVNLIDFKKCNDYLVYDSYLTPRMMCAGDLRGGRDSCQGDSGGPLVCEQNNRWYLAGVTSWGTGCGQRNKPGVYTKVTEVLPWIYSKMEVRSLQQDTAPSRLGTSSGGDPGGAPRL
# UniProt P00915, sequence (whole entry, looked up): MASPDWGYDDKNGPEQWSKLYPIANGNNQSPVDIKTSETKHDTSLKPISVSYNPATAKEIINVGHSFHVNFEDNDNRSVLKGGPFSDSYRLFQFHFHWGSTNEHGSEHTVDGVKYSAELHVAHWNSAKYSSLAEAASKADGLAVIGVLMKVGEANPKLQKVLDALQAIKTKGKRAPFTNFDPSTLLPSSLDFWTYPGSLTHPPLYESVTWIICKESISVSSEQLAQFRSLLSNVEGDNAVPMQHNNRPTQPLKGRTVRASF
Structure (SMILES),target or system,test,conditions,measurement,result
CN(C)CCCC1(c2ccc(F)cc2)OCc2cc(C#N)ccc21 (centres unmarked),TMEM97,"ligand displacement, radioligand",,Ki,0.689 µM
Oc1ccc(-c2cc(COc3ccccc3C(F)(F)F)c(C3=CCNCC3)cc2COc2ccccc2C(F)(F)F)cc1,PFF0160c E182D,"enzyme activity, inhibitor, absorbance",,IC50,2.66 µM
COc1ccc(NC(=O)Nc2ccc3c(c2)C=CCP(=O)(O)O3)cc1,CA2,"enzyme activity, inhibitor, stopped-flow",,Ki,> 10 µM
FC(F)(F)c1ccc2c(c1)N(CCCN1CCN(CCCl)CC1)c1ccccc1S2,TMEM97,"ligand displacement, radioligand",,Ki,0.467 µM
CC1Oc2cc3c(-c4c(O)cc(O)c5c(O)c6c(cc45)OC(C)C(C)C6=O)c(O)cc(O)c3c(O)c2C(=O)C1C (centres unmarked),"Replicase polyprotein 1ab, main protease (Feline coronavirus, UniProt Q98VG9)","enzyme activity, inhibitor, fluorescence",,Ki,3.69 µM
O=C(Nc1ccc(Cl)cc1)Nc1ccc2c(c1)C=CCP(=O)(O)O2,CA2,"enzyme activity, inhibitor, stopped-flow",,Ki,> 10 µM
Cc1nn(C)cc1-c1nc2c(N3CCN(Cc4ccc(Cl)cc4)CC3)c(Cl)cnc2[nH]1,STK32C,"binding, competition with immobilised ligand",1 µM,remaining binding,100%
COc1cc(CCNC(C)c2ccccc2O)c(OC)cc1C#N (centres unmarked),HTR2C,"calcium signal, agonist",,EC50,0.093 µM
CC(C)[C@@H](Nc1nc(Cl)nc2c1ncn2[C@H]1[C@H](O)[C@H](O)[C@]2(CCl)C[C@H]12)C1CC1,HTR2C,"ligand displacement, radioligand",,Ki,3.81 µM
Fc1ccc(C(OCCN2CCN(CCCc3ccccc3)CC2)c2ccc(F)cc2)cc1,TMEM97,"ligand displacement, radioligand",,Ki,0.199 µM
C#Cc1n[nH]c2c(-c3cn(C(C)c4ccccn4)c(=O)[nH]c3=O)cc(F)cc12 (centres unmarked),"ERBB4 (Homo sapiens, UniProt Q15303)","enzyme activity, inhibitor",1 µM,inhibition,0.9%
OC[C@@]12C[C@@H]1[C@@H](n1cnc3c(NCc4ccccc4)nc(Cl)nc31)[C@H](O)[C@@H]2O,HTR2C,"ligand displacement, radioligand",,Ki,0.326 µM
O=C(Nc1cccc(Cl)c1)Nc1ccc2c(c1)C=CCP(=O)(O)O2,CA2,"enzyme activity, inhibitor, stopped-flow",,Ki,> 10 µM
Nc1ncc(-c2nc(N3CCOCC3)nc(N3CCOCC3)n2)c(C(F)F)n1,STK32C,"binding, competition with immobilised ligand",10 µM,remaining binding,100%
Cc1cccc(C(=O)N2CCN(Cc3cccc(NC(=O)c4ccco4)c3)CC2)c1,PFF0160c E182D,"enzyme activity, inhibitor, absorbance",,IC50,> 10 µM
OCCOCCN1CCN(C(c2ccccc2)c2ccc(Cl)cc2)CC1 (centres unmarked),TMEM97,"ligand displacement, radioligand",,Ki,1.34 µM
COc1cccc(NC(=O)Nc2ccc3c(c2)C=CCP(=O)(O)O3)c1,CA2,"enzyme activity, inhibitor, stopped-flow",,Ki,> 10 µM
CCOC(=O)N[C@@H](CCCNC(=N)N)C(=O)N[C@@H](CCC(N)=O)C(=O)N[C@@H](Cc1ccccc1)C(=O)N[C@@H](CCCNC(=N)N)C(=O)c1nc2ccccc2s1,FURIN,cell-free assay,,Ki,> 10 µM
N.N.[Cl][Pt][Cl],MOLT-4,"cell growth or viability, ATP luminescence","10 µM, 72 h",inhibition,100%
COc1ncccc1-c1cnn2ccc(N3CCN(C(=O)OC(C)C)CC3)nc12,"COQ8B (Homo sapiens, UniProt Q96D53)","binding, competition with immobilised ligand",1 µM,remaining binding,81%
CN(C)CCC(c1ccc(Cl)cc1)c1ccccn1 (centres unmarked),TMEM97,"ligand displacement, radioligand",,Ki,3.93 µM
N=C(N)NCCC[C@H](NC(=O)[C@H](Cc1ccccc1)NC(=O)[C@H](CCC(N)=O)NC(=O)OCc1ccccc1)C(=O)c1nccs1,FURIN,cell-free assay,,Ki,> 10 µM
O=C(Nc1ccc(I)cc1)Nc1ccc2c(c1)C=CCP(=O)(O)O2,CA2,"enzyme activity, inhibitor, stopped-flow",,Ki,> 10 µM
CC(C)(C)[C@H](NC(=O)[C@H](CCCNC(=N)N)NC(=O)Cc1ccc(CNC(=N)N)cc1)C(=O)N[C@@H](CCCCN)C(=O)NCc1ccc(C(=N)N)cc1,"Coagulation factor X, trypsin-like site (F10, Homo sapiens, UniProt P00742)","enzyme activity, inhibitor",pH 8,Ki,> 3 µM and 8 µM
CC(C)NC[C@@H](O)COc1cccc2ccccc12,TMEM97,"ligand displacement, radioligand",,Ki,1.23 µM
COc1ccc(C(=O)Nc2ccc3c(c2)C=CCP(=O)(O)O3)cc1,CA2,"enzyme activity, inhibitor, stopped-flow",,Ki,> 10 µM
[2H]c1c([2H])c([C@]2([2H])CCCN2C(=O)C(C)(C)Oc2ccc3cn[nH]c3c2)c([2H])c([2H])c1C([2H])([2H])[2H],"STK17A (Homo sapiens, UniProt Q9UEE5)","binding, competition with immobilised ligand",1 µM,remaining binding,71%
O=C(Nc1ccc2c(c1)C=CCP(=O)(O)O2)c1ccco1,"CA1 (Homo sapiens, UniProt P00915)","enzyme activity, inhibitor, stopped-flow",,Ki,> 10 µM
COCCC(=O)N[C@@H](CCC(N)=O)C(=O)N[C@@H](Cc1ccccc1)C(=O)N[C@@H](CCCNC(=N)N)C(=O)c1nc2ccccc2s1,"TMPRSS13 (Homo sapiens, UniProt Q9BYE2)",cell-free assay,,Ki,0.137 µM
CN(C)CCOC(c1ccccc1)c1ccccc1,TMEM97,"ligand displacement, radioligand",,Ki,2 µM
CCOP1(=O)CC=Cc2cc(N)ccc2O1 (centres unmarked),CA2,"enzyme activity, inhibitor, stopped-flow",,Ki,> 10 µM
CC(C)c1cc2c(c(O)c1O)[C@@]13CCCC(C)(C)[C@@H]1[C@@H](O)[C@@H]2OC3=O,"ACHE (Homo sapiens, UniProt P22303)","enzyme activity, inhibitor",,Ki,0.00168 µM
N=C(N)NCCC[C@H](NC(=O)[C@H](Cc1ccccc1)NC(=O)[C@@H]1CCCN1C(=O)[C@H](CO)NC(=O)[C@@H]1CCCN1C(=O)[C@@H](N)Cc1ccccc1)C(=O)O,"ACE (Oryctolagus cuniculus, UniProt P12822)","enzyme activity, inhibitor",,Ki,8750 µM
Cc1nccn1CC1CCc2c(c3ccccc3n2C)C1=O (centres unmarked),TMEM97,"ligand displacement, radioligand",,Ki,> 10 µM
COc1cc2c(cc1OC)CN(CCc1ccc(NC(=O)c3cccc4c(=O)c5cccc(OC)c5[nH]c34)cc1)CC2,"ADRA2B (Homo sapiens, UniProt P18089)",cell-free assay,,Ki,0.806 µM

# Excerpt of the above:
Structure (SMILES),target or system,test,conditions,measurement,result
COc1cc(CCNC(C)c2ccccc2O)c(OC)cc1C#N (centres unmarked),HTR2C,"calcium signal, agonist",,EC50,0.093 µM
CC(C)[C@@H](Nc1nc(Cl)nc2c1ncn2[C@H]1[C@H](O)[C@H](O)[C@]2(CCl)C[C@H]12)C1CC1,HTR2C,"ligand displacement, radioligand",,Ki,3.81 µM
Fc1ccc(C(OCCN2CCN(CCCc3ccccc3)CC2)c2ccc(F)cc2)cc1,TMEM97,"ligand displacement, radioligand",,Ki,0.199 µM
